# Experimental data gathered from unrelated publications.
# Compare with care: the assays were run in different laboratories. Several values in a cell are separate wells, animals, samples, runs or records. Numbers after ± are the reported error.
SMILES,assay,system,conditions,scale,quantity,result
CN1CCC[C@]1(C)/C=C/S(=O)(=O)NC(=O)Nc1c2c(cc3c1CCC3)CCC2,"item: respiratory, thoracic, mediastinal disorders",human,"oral, 50 mg twice daily, 14 days, multiple ascending dose",,subjects with adverse event,16.7%
OCCn1nc(-c2ccccc2)c2c(Cl)c(-c3ccccc3)nnc21,,"mouse juvenile P20, plasma","intraperitoneal, 40 mg/kg",,AUC,2.28 µM·h
Cc1cc(C)n(CCN(CCN)CCCCCCNC(=O)[C@@H](N)Cc2c[nH]cn2)n1.[99Tc+].[C-]#[O+].[C-]#[O+].[C-]#[O+],,BALB/c nude mice A549 xenograft,"intravenous, 4 h",,excretion,23.1 ± 3.4 % injected activity
[123I]c1ccc2nc(-c3ccc(-n4ccnn4)nc3)cn2c1,,"male Wistar rat, pancreas","intravenous, 4 MBq, 14 h",,tracer uptake,0.005 %ID/g
CCN(CC)c1ccc2c(c1)O[B-]1(c3c(C)cccc3C)OC(=O)C(c3ccccc3)=N[N+]1=C2 (stereo not drawn),,toluene,,,fluorescence emission maximum,511 nm
C=C(NC(=O)c1csc(-c2nc3c(cc2O)-c2nc(cs2)C(=O)NC(C(C)O)C(=O)NC(=C(C)OC)c2nc(cs2)C(=O)NC2c4nc(cs4)C(=O)NC(COC(=O)c4c5c6c(cccc6n4O)COC(=O)C(OC4CC(C)(O)C(N(C)C)C(C)O4)C2OC5)c2nc-3cs2)n1)C(N)=O (stereo not drawn),,"Sprague-Dawley rat, female, plasma","intravenous infusion, 6 mg/kg single dose",,volume of distribution,19.9 L/kg
Cc1nc(N)nc2c1C(=O)N[C@@H](c1ccc(F)cc1-c1cccc(O[11CH3])n1)C2,ex vivo biodistribution,"mice, MDA-MB-231 subcutaneous xenograft, muscle","60 min post-injection, baseline, vehicle pre-treatment",,tracer uptake,23.1 ± 1.6 %ID
Cc1ccc(OCC(=O)N(Cc2cccs2)c2ccn[nH]2)cc1,,male Gottingen pig liver microsomes,"10 µM, 60 min, without NADPH",,remaining compound,77.2%
Nc1ncc(-c2ccc([C@H]3[C@@H](F)[C@@H](F)C[C@@H](F)[C@H]3F)cc2)cn1,hepatocyte stability,cryopreserved mouse hepatocytes,1 µM,,hepatic clearance,21 mL/min/kg
CC[C@H](C)[C@@H]1NC(=O)[C@H](Cc2ccc(O)cc2)NC(=O)CCCSC[C@@H](C(=O)N(CC(=O)N[C@@H](CC(C)C)C(=O)NCC(N)=O)Cc2ccc(F)cc2)NC(=O)[C@H](CC(N)=O)NC(=O)[C@H](CCC(N)=O)NC1=O,,human,"intranasal, 400 µg repeated",,AE leading to discontinuation,17%
CC(=O)Nc1ccc([C@H]2[C@@H](F)[C@@H](F)C[C@@H](F)[C@H]2F)cc1,hepatocyte stability,cryopreserved mouse hepatocytes,1 µM,,hepatic clearance,78 mL/min/kg
c1ccc2cc3c(ccc4ccccc43)cc2c1,,"developing zebrafish, liver",,,hepatic clearance,5760 mL/min/kg
O=C(CCC(F)(F)F)Nc1ccc(C2CCCCC2)cc1,liver microsome stability,cynomolgus liver microsomes,1 µM,,hepatic clearance,37 mL/min/kg
CCC(CC)n1c(Cc2ccco2)nc2cc(C(=O)N[C@@H](CC(=O)O)c3ccccc3)ccc21,,"male Sprague-Dawley rat, plasma","intravenous, 1 mg/kg",,MRT(0-t),1.3 h
O=C(Nc1ccc(C2CCCCC2)cc1)C1CC1,liver microsome stability,cynomolgus liver microsomes,1 µM,,hepatic clearance,37 mL/min/kg
COc1cccc(OC)c1-c1cc(C(=O)NC2(C(=O)O)C3CC4CC(C3)CC2C4)nn1-c1ccc(C(=O)N(C)CCCN(C)CCCN(C)C(=O)[C@H](CCCCNC(=O)[C@H](CC(C)C)NC(=O)C2OC2C(=O)O)NC(=O)CN2CCN(CC(=O)[O-])CCN(CC(=O)[O-])CCN(CC(=O)[O-])CC2)cc1C(C)C.[177Lu+3] (mixture of isomers),,"mouse, HT-29 xenograft","4 h post injection, biodistribution",reference: tumour over bone uptake,tumour-to-bone ratio,14.8
N#Cc1cccc(-c2ccc([C@H]3[C@@H](F)[C@@H](F)C[C@@H](F)[C@H]3F)cc2)c1,liver microsome stability,rat liver microsomes,1 µM,,hepatic clearance,6.1 mL/min/kg
Cc1nn(-c2nc3c(F)cc(F)cc3s2)c(O)c1C(c1ccc(C(F)(F)F)cc1)c1c(C)nn(-c2nc3c(F)cc(F)cc3s2)c1O,,"ICR mouse, plasma","intraperitoneal, 10 mg/kg",,AUC extrapolated observed,9.59% and 14.1% and 4.07%

# Excerpt of the above:
SMILES,assay,system,conditions,scale,quantity,result
CCN(CC)c1ccc2c(c1)O[B-]1(c3c(C)cccc3C)OC(=O)C(c3ccccc3)=N[N+]1=C2 (stereo not drawn),,toluene,,,fluorescence emission maximum,511 nm
